Results gathered from unrelated publications.
A part holds a random share of what one study measured. Positions count from the first letter of the parent shown.

Sample 1
Target: CEP164, C-terminal peptide (human)
Technique: DHFR complementation, deep sequencing
Sample: yeast
Setting: single substitutions, model-inferred values
Reference: wild type
Reading: higher = weaker binding
Starting sequence: PDZK1, PDZ domain 2 (human); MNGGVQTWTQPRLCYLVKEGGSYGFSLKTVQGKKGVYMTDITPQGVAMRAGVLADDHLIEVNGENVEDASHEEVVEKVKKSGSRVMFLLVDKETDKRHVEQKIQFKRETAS; partner HNRVKVYRF
`K77A` — result for “binding free energy change”: 0.0325 kcal/mol.
`V5C`: “binding free energy change” -0.0538 kcal/mol.
`G3P` — result for “binding free energy change”: 0.0236 kcal/mol.
`E73M` — result for “binding free energy change”: 0.111 kcal/mol.
`V75F`: “binding free energy change” 1.37 kcal/mol.
`L16T`: “binding free energy change” 1.45 kcal/mol.
`N62C` — result for “binding free energy change”: 1.15 kcal/mol.
`E19Y` — result for “binding free energy change”: 0.334 kcal/mol.

Sample 2
Target: Fragile X messenger ribonucleoprotein 1, C-terminal low-complexity region (Fmr1, Mus musculus, UniProt P35922)
Technique: RNA Bind-n-Seq
Form: RNA
Sample: in vitro
Concentration: 200 nM
Setting: whole 134-nt RNA, ends assumed
Together with: 150 mM KCl
Reference: input library
Reading: higher = stronger binding
The log2 enrichment of `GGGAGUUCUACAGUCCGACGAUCAAGUCCUGUGCUACACAUCGUAUGUACCGAAUCGGUUUUUGGAAAAAGGUUUUUGGAAAGUAUUAUGUUACGCCGUUCGGAUCUGCACUUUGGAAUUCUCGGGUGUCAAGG` is reported as -1.12.
`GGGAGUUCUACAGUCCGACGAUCCCUCAAGUCCUGUGCUACACAUCGUAUGUACCGAAUCGGGAGGGGAGGAGGGAAAGUAUUAUGUUACGCCGUUCGGAUCUGCACUUCCAGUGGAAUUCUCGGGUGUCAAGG` gave a log2 enrichment of 0.946.
`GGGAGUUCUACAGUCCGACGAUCUUUCUAGCUGGACCAGUCCGGUACGCUCCGGGCCUCACCGAGGAAGUCCCACCCUGCAGGGGAACCGACUCUGGCCGGCCCUAACCCCUCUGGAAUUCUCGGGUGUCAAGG` has a log2 enrichment of -0.48.
For `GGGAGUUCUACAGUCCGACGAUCUUAUAAUUGAUGAUCAUCCUGAAGUAACAGUAAUUGAAGAUCCCCAGUCAAAUUUGAAUGAUGAUGGUUUUACUGAAGUGGUAUCCAAAAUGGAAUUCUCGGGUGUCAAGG`, the log2 enrichment was -0.67.
For `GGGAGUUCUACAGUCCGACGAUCCCUGUGCUACACAUCGUAUGUACCGAAUCGGGUUUUUUUGGGUUUUUGGGUUUUUUUGGGAAAGUAUUAUGUUACGCCGUUCGGAUCUGCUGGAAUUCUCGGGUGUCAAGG`, the log2 enrichment was -0.318.
`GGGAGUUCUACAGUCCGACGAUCACCAUGCAGGUGGGCAUCUUUGGGAAGUGGGGGAAGGGGGGGAUAGGGAGGGGGGUAACACUUUGGGAACAGGUGGUCCCAGGUCGUUUCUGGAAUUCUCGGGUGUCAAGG` gave a log2 enrichment of 0.887.
`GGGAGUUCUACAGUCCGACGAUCCCUCAAGUCCUGUGCUACACAUCGUAUGUACCGAAUCGGGGAGGGGAGGAGGAAAGUAUUAUGUUACGCCGUUCGGAUCUGCACUUCCAGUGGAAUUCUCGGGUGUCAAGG` gave a log2 enrichment of 0.61.
`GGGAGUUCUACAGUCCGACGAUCUGGGAGGUGGAUUUUGUUUAUUUUUUUAGCUCAUUUCCAGGGGUGGGAAUUUUUUUUUAAUAUGUGUCAUGAAUAAAGUUGCUUUUGAAAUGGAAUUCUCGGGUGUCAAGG` gave a log2 enrichment of 0.188.

Sample 3
Target: Histone acetyltransferase KAT6A, winged helix 2, GST fusion (KAT6A, Homo sapiens, UniProt Q92794, residues 85-181)
Technique: protein binding microarray
Form: double-stranded DNA, one strand shown
Sample: in vitro
Concentration: not given
Setting: 8-mer, flanks averaged, mean of 2 arrays, mostly near background
Reference: not given
Reading: higher = stronger binding
Residues (chain): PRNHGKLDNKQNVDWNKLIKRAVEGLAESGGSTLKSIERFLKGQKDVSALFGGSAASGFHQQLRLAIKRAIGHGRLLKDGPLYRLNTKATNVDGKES
`CGAATTTC` gave an E-score of 0.0353.
`CTCCCTGC` gave an E-score of 0.0875.
`CCGAATCA` has an E-score of 0.143.
For `AGCCGCTA`, the E-score was 0.0511.
With `CGCATTTA` the E-score was 0.0829.
For `ACGTAGGG`, the E-score was -0.277.
`AAGCCCAA` has an E-score of -0.0573.
`CCTCCCCC` gave an E-score of -0.0446.

Further values, each from its own experiment
Starting sequence: viral docking peptide; KKVKRRLFETREL
For `AKVKRRLFETREL [K1A]`, “normalised enrichment score” read 6.07 (CCNE1, cyclin fold, Cln2 fusion (human); yeast growth competition, sequencing; yeast; strong parent motif; reference: not given, higher = stronger binding).

Some of these lines once more (sample 3):
For `AGCCGCTA`, the E-score was 0.0511.
With `CGCATTTA` the E-score was 0.0829.
For `ACGTAGGG`, the E-score was -0.277.
`AAGCCCAA` has an E-score of -0.0573.
